Assay results from different studies.
Every numbered part comes from another study and shows a few of its results, in no order. Changes are numbered by the printed parent chain.

Series 1 — technique: EMSA with sequencing; form: double-stranded DNA, one strand shown; sample: in vitro; concentration: 10 and 20 nM; reference: negative control set to 0; reading: higher = stronger binding
Target: Hepatocyte nuclear factor 3-alpha (Foxa1, Mus musculus, UniProt P35582, residues 1-468, full length assumed)
Notes: whole designed probe, mean of two concentrations, ends assumed
Residues (chain): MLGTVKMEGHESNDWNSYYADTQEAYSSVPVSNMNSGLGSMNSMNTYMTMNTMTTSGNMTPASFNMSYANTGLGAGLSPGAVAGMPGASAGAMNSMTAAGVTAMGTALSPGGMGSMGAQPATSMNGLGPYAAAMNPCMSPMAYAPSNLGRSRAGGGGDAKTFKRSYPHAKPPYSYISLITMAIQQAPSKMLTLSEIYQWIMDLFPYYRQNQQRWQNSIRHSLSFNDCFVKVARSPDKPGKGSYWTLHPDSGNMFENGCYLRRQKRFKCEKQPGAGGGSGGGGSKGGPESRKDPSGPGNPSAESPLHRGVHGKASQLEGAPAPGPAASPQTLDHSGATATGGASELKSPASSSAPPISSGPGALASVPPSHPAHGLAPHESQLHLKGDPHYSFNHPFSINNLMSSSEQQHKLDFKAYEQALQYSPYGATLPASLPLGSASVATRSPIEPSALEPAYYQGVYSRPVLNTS
Under “normalised bound fraction”, `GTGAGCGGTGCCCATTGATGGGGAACTAACCGGAGCGTGCACACCCGCCTGCGAGGCTGACCCGAGCGCGTCCCACCCAAGGTCGCCCAGCCCGGCCGGCGTTTACTTTTCAAAGGTCGTGTGTACACAGTCTGAGCCGGAGCTGCCCCTTCACTTCTGGAGCCTCGCCCAACTTCTCACCCTCGGCTCGCCCGCCGGCGCAGCCCCTGGGAGTTCCGTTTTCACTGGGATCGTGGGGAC` is recorded as 0.221 ratio.
For `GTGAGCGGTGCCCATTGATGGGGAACGTCATTTATTTCATGTTGTCCTGAGATTGGATCTAAACTTTGAGCTCCTAATCATCGCTCAGATTGTGTGGCCTCGTAAGATTGTGCGTAATAAGTAAACAAGCATCTGTACACTTGTTAACTTAATGAGCTTCTGTATGTGACACTTTAAGCCTTTTTAAAAATTAAGTGCTGGGCTATGCTTGGTGTCTCATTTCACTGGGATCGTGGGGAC`, “normalised bound fraction” read 0.417 ratio.
`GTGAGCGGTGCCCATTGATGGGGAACCTCTCTGGTGGTTCTAGCTCATACACGGCTAATGATTTATGAGGCAGTGTTGTGTGGCACTACCTAGCTGTTACTTTCTTGCCTACTCTGCTGAGTAAACAGGGGCCCTGTCTTAGCTGGGTTTGAAGTCTGTTCCCTAGGGAAGGGCACTGTGTCCCCGAGTCACCAGAGAGGAGGGGCAAGGGCATCTCCTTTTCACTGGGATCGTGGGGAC` — result for “normalised bound fraction”: 0.272 ratio.
`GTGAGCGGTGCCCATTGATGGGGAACCATATTTTCTTCTAATCAGCTAACTATATACACATATTTTGAAAATTACAAGGCCTGAAAAAACATCAAGCTATAAATGTTATTGTTATTCATGTTTACATTATACCTTATATTTTTAGAACTTCTAAGTTTCTTCACAATTTTTTTTTCTTCTGGGTGAGATATGTGTTATTATCGTAATTTTCACATGAATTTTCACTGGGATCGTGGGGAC` — result for “normalised bound fraction”: 0.367 ratio.
`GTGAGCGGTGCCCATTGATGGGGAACATCACAATTGTATATAAACAATGTTTTGAATTAAAGAAGTAATGTATTTGCAGAAATTGCTTCCCTATTGTACCACATGATTCTTATTCAAAGTAATCTCCAATAGTATACAGTGTTATAATGACTAAAAACAAACAAATGCCATTTTATATCATAGGATGTAATTTTATTTAAGTAGTAAAGAACTAATTTCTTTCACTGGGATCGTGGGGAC`: “normalised bound fraction” 0.47 ratio.

Series 2 — technique: DNA-protein interaction ELISA; form: double-stranded DNA, one strand shown; sample: in vitro, bacterial lysate; concentration: not given; notes: whole dsDNA probe, crude lysate protein; reference: highest signal in screen; reading: higher = stronger binding
Target: Probable WRKY transcription factor 33, C-terminal DNA-binding domain (WRKY33, Arabidopsis thaliana, UniProt Q8S8P5, residues 346-449)
Construct (chain): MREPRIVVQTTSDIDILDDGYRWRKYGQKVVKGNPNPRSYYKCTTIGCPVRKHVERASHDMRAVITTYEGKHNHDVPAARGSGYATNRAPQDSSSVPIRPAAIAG
`AAAAAAAATACTGCGCACTTGCACTCAAAA` gave a relative absorbance of 44.5 % of maximum.
`AAAAAAGTGTTAGATTGTAGTTGATAAAA` has a relative absorbance of 31.4 % of maximum.
With `AAAAAATACTGGCTGTCTCGTTCACAAAAA` the relative absorbance was 30.8 % of maximum.
`AAAAAACGCTTTCAGTTTTGATCTTAAAAA` has a relative absorbance of 31.5 % of maximum.
With `AAAAAAGCCGTGGGTGATGGTCACAGAAAA` the relative absorbance was 38.4 % of maximum.
With `AAAAAATGTCCATCTTGCGTCTGTATAAAA` the relative absorbance was 38.3 % of maximum.
`AAAAAAGTCCGCCCTTAATTCATATTAAAA` has a relative absorbance of 98.9 % of maximum.
`AAAAAAGATCTAGGCCTTGGGACTCAAAAA` has a relative absorbance of 37.1 % of maximum.

Series 3 — technique: RNA Bind-n-Seq; form: RNA; sample: in vitro; concentration: not given; notes: RNA with constant flanks, ends assumed; reference: input RNA pool; reading: higher = stronger binding
Target: RING finger protein unkempt homolog, zinc fingers 1-6, GST-SBP tag (UNK, Homo sapiens, UniProt Q9C0B0, residues 30-357)
Chain of UniProt Q9C0B0 (30-357, looked up): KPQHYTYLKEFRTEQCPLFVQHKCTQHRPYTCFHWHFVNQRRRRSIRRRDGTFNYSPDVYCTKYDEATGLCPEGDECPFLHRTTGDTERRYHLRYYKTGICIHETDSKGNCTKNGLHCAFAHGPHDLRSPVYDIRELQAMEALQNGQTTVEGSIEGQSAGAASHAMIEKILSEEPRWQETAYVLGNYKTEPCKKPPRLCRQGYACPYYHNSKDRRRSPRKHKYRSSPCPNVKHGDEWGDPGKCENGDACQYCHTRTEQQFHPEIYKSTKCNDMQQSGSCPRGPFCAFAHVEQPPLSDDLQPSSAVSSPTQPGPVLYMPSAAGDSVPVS
With `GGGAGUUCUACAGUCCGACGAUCCCAGUCAGUGGGAGGUAGAAAGGGUGGCAUCUGUAGCCCUCUUCAUACACAUAAGUGGCAUUCCGGUGAAUGUCCCAGCUAAUCACUAGCAUGUCUAGGUAUUGGCUGGGUAGUGGGUAUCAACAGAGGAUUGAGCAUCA` the bound/input enrichment was 0.281 ratio.
`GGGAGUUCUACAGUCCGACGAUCGCUGAACUUGAUACACUGAAUGAAGACUCAUACAAAGACAGCACCCUCAUCAUGCAGUUGCUCCGAGACAACCUAACACUUUGGACAUCAGACAGUGCAGGAGAAGAAUGUGAUGCGGCACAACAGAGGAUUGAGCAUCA` has a bound/input enrichment of 0.205 ratio.
`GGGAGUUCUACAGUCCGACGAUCUGUGGCUUUGGUGGGGUCUUAAGUUGUGGGCUGACACACACUGCUGUUGUUCCCCUGGACUCCGUAAAGUGCCGCAUGCAGGUGGACCCUCAGAAGUACAAAGGCAUAUUUAAUGGAUUCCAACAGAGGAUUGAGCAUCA` has a bound/input enrichment of 0.106 ratio.
`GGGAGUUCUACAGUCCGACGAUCCACAGAGCAGCACCUACCCCCUCCUCCUUUCCACACCUGCAAACUCUUUUACUUGGGCUGAAUAUUCCGUGUAAUUACAUCUCAGCUUUGAGGGCUCCUGUGGCAAAUUCCCGGAUUAAACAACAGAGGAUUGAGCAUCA` gave a bound/input enrichment of 0.472 ratio.
`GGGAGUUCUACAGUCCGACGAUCGAUGAAAUGGGUUUGGGAAAGACACUUCAAACAAUUUCUCUUCUUGGAUACAUGAAACACUACCGAAAUAUUCCUGGUCCUCAUAUGGUUUUGGUUCCCAAGUCUACAUUGCACAACUGGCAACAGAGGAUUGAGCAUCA` has a bound/input enrichment of 0.173 ratio.
With `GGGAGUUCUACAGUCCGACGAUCCAUAAUCUGAAGGAUCGCUACUAUUCAGGACUAAUCUAUACUUAUUCUGGACUCUUCUGUGCCGUUAUAAACCCUUACAAGAAUCUUCCAAUUUACUCUGAGAAUAUUAUUGAAAUGUACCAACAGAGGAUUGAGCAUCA` the bound/input enrichment was 0.36 ratio.
`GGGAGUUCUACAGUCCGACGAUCCCAGAAUACACCAAAAAAAUAGAAAACCUCUGUGCUAUGGGUUUUGAUAGGAACGCAGUAACCGUGGCCUUGUCUUCAAAAUCAUGGGAUGUAGAGACUGCAACAGAACUGCUUCUGAGUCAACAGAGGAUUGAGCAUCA` has a bound/input enrichment of 0.403 ratio.
For `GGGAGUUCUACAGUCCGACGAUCUCUAAUAUUAGCCUUGUCUUUGAUUUUAUGGAAACUGAUCUAGAGGUUAUAAUAAAGGAUAACCGUCUUGUGCUGACACCAUCACACAUCAAAGCCUACAUGUUGAUGACUCUUCAAGGACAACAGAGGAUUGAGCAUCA`, the bound/input enrichment was 0.342 ratio.

Single results of other studies
Starting sequence: viral docking peptide; CKVKRKLFGSENI; partner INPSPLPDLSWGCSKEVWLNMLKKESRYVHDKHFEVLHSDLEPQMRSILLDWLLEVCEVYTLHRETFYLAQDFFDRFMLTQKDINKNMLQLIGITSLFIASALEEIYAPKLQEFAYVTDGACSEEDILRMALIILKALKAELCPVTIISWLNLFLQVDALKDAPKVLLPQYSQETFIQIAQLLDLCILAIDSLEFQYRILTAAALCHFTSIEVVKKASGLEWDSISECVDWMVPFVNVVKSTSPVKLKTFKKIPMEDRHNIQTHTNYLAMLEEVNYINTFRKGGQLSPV
For `CKVKRKAFGSENI [L7A]`, “normalised enrichment score” read 0.489 (CCNE2, cyclin fold, Cln2 fusion (human); yeast growth competition, sequencing; yeast; strong parent motif; reference: not given, higher = stronger binding).

Some of these lines once more (series 3):
`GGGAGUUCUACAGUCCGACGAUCGAUGAAAUGGGUUUGGGAAAGACACUUCAAACAAUUUCUCUUCUUGGAUACAUGAAACACUACCGAAAUAUUCCUGGUCCUCAUAUGGUUUUGGUUCCCAAGUCUACAUUGCACAACUGGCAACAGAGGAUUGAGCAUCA` has a bound/input enrichment of 0.173 ratio.
`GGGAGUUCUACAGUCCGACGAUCCCAGAAUACACCAAAAAAAUAGAAAACCUCUGUGCUAUGGGUUUUGAUAGGAACGCAGUAACCGUGGCCUUGUCUUCAAAAUCAUGGGAUGUAGAGACUGCAACAGAACUGCUUCUGAGUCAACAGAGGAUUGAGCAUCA` has a bound/input enrichment of 0.403 ratio.
`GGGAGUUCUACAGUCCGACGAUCGCUGAACUUGAUACACUGAAUGAAGACUCAUACAAAGACAGCACCCUCAUCAUGCAGUUGCUCCGAGACAACCUAACACUUUGGACAUCAGACAGUGCAGGAGAAGAAUGUGAUGCGGCACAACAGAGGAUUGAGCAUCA` has a bound/input enrichment of 0.205 ratio.
